Assay results of several laboratories.
Compare with care: the assays were run in different laboratories. “And” joins repeats or separate records; there may be more than shown. ± marks the error that the study gave.
Seed linoleate 13S-lipoxygenase-1: Seed linoleate 13S-lipoxygenase-1 (Glycine max, UniProt P08170)

| Compound | target | assay | system | setting | IC50 |
| --- | --- | --- | --- | --- | --- |
| CCn1cnc(C[C@H](NC(=O)c2cnccn2)C(=O)N2CCC[C@H]2C(N)=O)c1 | Thyrotropin-releasing hormone receptor (Mus musculus, UniProt P21761) | ligand displacement, radioligand |  |  | > 50 µM |
| N#C/C(=C\c1cccc(-c2cn[nH]c2)c1)C(N)=O | Ribosomal protein S6 kinase alpha-3, C-terminal kinase domain (RPS6KA3, Homo sapiens, UniProt P51812) | enzyme activity, inhibitor |  | 10 mM reduced glutathione, together with: 0.1 mM ATP, peptide substrate | 1.2 µM |
| COc1cccc(-c2cc(C(=O)NCCN(C)C)c3cc(Br)ccc3n2)c1 | Trypanothione reductase (TPR, Trypanosoma brucei brucei, UniProt P39051) | inhibitor, DTNB-coupled colourimetric |  | together with: substrate at Km | > 100 µM |
| O=C(c1ccc(F)cc1)N1CCN(c2ccc(F)cc2)CC1 | SEC14 (Saccharomyces cerevisiae, UniProt P24280) | enzyme activity, inhibitor, radiometric |  |  | 56.5 µM |
| NC(=O)CNC(=O)[C@@H]1CCCN1C(=O)[C@H](Cc1ccc(O)cc1)NC(=O)[C@H](Cc1c[nH]c2ccccc12)NC(=O)[C@@H](Cc1c[nH]c2ccccc12)NC(=O)[C@H](Cc1c[nH]cn1)NC(=O)[C@H](CO)NC(=O)[C@H](Cc1c[nH]c2ccccc12)NC(=O)[C@H](Cc1c[nH]cn1)NC(=O)[C@@H]1CCC(=O)N1 | Gonadotropin-releasing hormone receptor (Rattus norvegicus, UniProt P30969) | binding, radioligand displacement | WPE-1-NB26-3 expressing Gonadotropin-releasing hormone receptor, whole cells | together with: radioiodinated GnRH analogue | 0.0026 ± 0.0003 µM |
| COc1cc(-c2nc3ccc(C(=O)NCCCN4CCN(c5cccc(C)c5C)CC4)cc3n2C2CCC2)cc(OC)c1OC | Activin receptor type-1 (ACVR1, Homo sapiens, UniProt Q04771, R206H) | binding, NanoBRET | HEK293 |  | 1.53 µM |
| Cc1cc(NC(=O)c2cccc(-n3cc(NC(=O)Nc4ccccc4)cn3)c2)ccn1 | Mitogen-activated protein kinase 14 (MAPK14, Homo sapiens, UniProt Q16539) | enzyme activity, inhibitor |  |  | > 10 µM |
| COc1cc(O)ccc1CCC(c1ccc(O)cc1)c1cc2c(c(C)c1O)OC(c1ccc(O)cc1)CC2 (mixture of isomers) | Prostaglandin G/H synthase 1 (PTGS1, Homo sapiens, UniProt P23219) | enzyme activity in cells, inhibitor |  |  | > 1 µM |
| O=C1Nc2ccc(-c3ccc4cc(O)ccc4c3)cc2/C1=C/c1ccc(N2CCNCC2)cc1 | Fibroblast growth factor receptor 4 (FGFR4, Homo sapiens, UniProt P22455) | enzyme activity, inhibitor |  |  | 13.6 µM |
| CC(C)NCc1ccc(C[C@@H]2NC(=O)[C@@H](Cc3c[nH]c4ccccc34)NC(=O)[C@H](Cc3ccc(O)cc3)NC(=O)[C@H](NC(=O)[C@@H](N)Cc3ccc(Cl)cc3)CSSC[C@@H](C(=O)N[C@@H](Cc3ccc4ccccc4c3)C(N)=O)NC(=O)[C@H]([C@@H](C)O)NC2=O)cc1 | Somatostatin receptor type 3 (SSTR3, Homo sapiens, UniProt P32745) | ligand displacement, radioligand |  | cell membranes | 0.3 µM and 0.234 µM and ~0.35 µM |
| C=C(NC(=O)C(=C)NC(=O)c1csc(C2=NC3c4csc(n4)C4NC(=O)c5csc(n5)C(C(C)(O)C(C)O)NC(=O)C5CSC(=N5)C(=CC)NC(=O)C(C(C)O)NC(=O)c5csc(n5)C3(CC2)NC(=O)C(C(C)C)NC(=O)C(=C)NC(=O)C(C)NC(=O)C(C(C)CC)NC2C=Cc3c(C(C)O)cc(nc3C2O)C(=O)OC4C)n1)C(N)=O (centres unmarked) | Proteasome subunit beta type-7, in 20S proteasome (PSMB7, Homo sapiens, UniProt Q99436) | trypsin-like activity, inhibitor | purified 20S proteasome | 15 min preincubation, 37 °C, together with: Boc-Leu-Arg-Arg-AMC substrate | 0.59 ± 0.04 µM |
| CNC(=O)C1CCN(c2ccccc2NC(=O)c2ccc(-c3cc(O)ccc3C)cc2)CC1 | Ephrin type-B receptor 2 (EPHB2, Homo sapiens, UniProt P29323) | target engagement in cells, BRET |  |  | 0.207 µM |
| N#Cc1c(Nc2c(Cl)ccc3ncccc23)s[nH]c1=O | NAD(+) hydrolase SARM1 (SARM1, Homo sapiens, UniProt Q6SZW1) | enzyme activity, inhibitor |  |  | 1.2 µM |
| C=C(C)C(=O)Nc1ccc(-c2c(-c3ccc(Oc4nccc(C)n4)cc3)c3c(N)ncnc3n2C)cc1 | Fibroblast growth factor receptor 2 (FGFR2, Homo sapiens, UniProt P21802) | Caliper mobility shift |  | 30 min preincubation, together with: 100 µM ATP | 0.007 µM |
| CNC(=O)c1cc(C)ccc1NC(=O)c1ccc(-c2c(C)ccc3[nH]ncc23)c(C)c1 | Ephrin type-A receptor 4 (EPHA4, Homo sapiens, UniProt P54764) | target engagement in cells, BRET |  |  | 0.173 µM |
| CCCc1nc2cc(C(=O)N3CCC4(CC3)CC(=O)c3cc5c(cc3O4)OC(C)(C)CC5)cc(C)c2[nH]1 | Acetyl-CoA carboxylase 1 (ACACA, Homo sapiens, UniProt Q13085) | enzyme activity, inhibitor, ADP detection |  |  | 0.436 µM |
| C[C@](C(=O)NC1CCOCC1)(c1cncnc1)N(C(=O)[C@H](F)Cl)c1ccc(OC(F)(F)Cl)cc1 | Cytochrome P450 2C19 (CYP2C19, Homo sapiens, UniProt P33261) | enzyme activity, inhibitor |  | 10 (unit not given) | > 50 µM |
| CC1=CC(C)(C)NC(Nc2nc(-c3ccccc3)c3ccccc3n2)=N1 | ADP-ribosyl cyclase/cyclic ADP-ribose hydrolase 1 (CD38, Homo sapiens, UniProt P28907) | enzyme activity, inhibitor, fluorescence |  |  | 23 µM |
| CC(=O)N[C@H]1[C@@H](OC(=O)NCCCOCCOCCOCCCNC(=O)O[C@H]2O[C@H](CNC(=O)OCCOCCOCCOCCOCCOCCOCCOCCOCCOCCOCCOC(=O)NC[C@H]3O[C@H](OC(=O)NCCCOCCOCCOCCCNC(=O)O[C@H]4O[C@H](CO)[C@@H](O)[C@H](O)[C@H]4NC(C)=O)[C@H](NC(C)=O)[C@@H](O)[C@@H]3O)[C@@H](O)[C@H](O)[C@H]2NC(C)=O)O[C@H](CO)[C@@H](O)[C@@H]1O | wheat germ agglutinin (Triticum vulgaris) | binding to immobilised GlcNAc, inhibitor, enzyme-linked lectin |  | together with: HRP-labelled WGA | 0.0066 µM |
| CC[C@H](C)[C@@H]1NC(=O)[C@H](Cc2ccc(O)cc2)NC(=O)[C@H](CC(N)=O)NC(=O)[C@H](CCC(N)=O)NC(=O)[C@@H]2CSSC[C@@H]3NC(=O)[C@H](CCC(=O)O)NC(=O)[C@H](Cc4c[nH]c5ccccc45)NC(=O)[C@@H]4CCCN4C(=O)[C@@H]4CCCN4C(=O)[C@@H]4CCCN4C(=O)[C@H](CCC(N)=O)NC(=O)[C@H](CC(C)C)NC(=O)[C@H](CCC(=O)O)NC(=O)[C@H](Cc4ccccc4)NC(=O)[C@H](CO)NC(=O)[C@H](Cc4ccc(O)cc4)NC(=O)[C@H](CO)NC(=O)CNC(=O)[C@H](CCCNC(=N)N)NC(=O)CNC(=O)[C@H](Cc4ccccc4)NC(=O)[C@H](CSSC[C@@H](C(=O)O)NC(=O)[C@H](CCC(N)=O)NC(=O)[C@H](Cc4ccc(O)cc4)NC3=O)NC(=O)[C@H](CSSC[C@H](NC(=O)[C@H](Cc3ccccc3)NC(=O)[C@H](C)N)C(=O)N[C@@H](Cc3ccc(O)cc3)C(=O)N[C@@H](CO)C(=O)N[C@@H](CC(=O)O)C(=O)N[C@@H](CCCNC(=N)N)C(=O)N[C@@H](Cc3ccccc3)C(=O)N2)NC(=O)[C@H](CC(=O)O)NC(=O)[C@@H]2CCCN2C(=O)[C@H]([C@@H](C)CC)NC(=O)[C@H](CO)NC(=O)CNC1=O | Tyrosyl-DNA phosphodiesterase 1 (TDP1, Homo sapiens, UniProt Q9NUW8) | enzyme activity, inhibitor, FRET |  | pH 7.4 | > 10 µM |
| Nc1ncc(-c2cnn(C3CCNCC3)c2)cc1-c1nc2ccc(Oc3ccccn3)cc2o1 | Tyrosine-protein kinase JAK2 (JAK2, Homo sapiens, UniProt O60674) | enzyme activity, inhibitor, TR-FRET |  |  | 0.31 µM |
| CC1(C)C2CCC3(CC(c4ccccc4)c4c(O)c(C=O)c(O)c(C=O)c4O3)C1C2 (single isomer, unassigned; (+)) | ATP-dependent 6-phosphofructokinase, muscle type (PFKM, Homo sapiens, UniProt P08237, K678R) | enzyme activity, inhibitor | HEK293T cell lysate | mutant | > 100 µM |
| CN(C)c1ccc2c(c1)C(=O)N(C(C(=O)O)C(C)(C)S)C2=O (centres unmarked) | Metallo-beta-lactamase type 2 (Serratia marcescens, UniProt P52699) | enzyme activity, inhibitor |  | pH 7.0, together with: chromacef 25 µM | > 50 µM |
| O=c1n(-c2cccnc2)cnn1-c1ccccn1 | Prolyl hydroxylase EGLN2 (EGLN2, Homo sapiens, UniProt Q96KS0) | enzyme activity, inhibitor, europium VBC binding |  | 10 µM FeSO4, 2 mM ascorbate, together with: 20 µM 2-oxoglutarate | > 50 µM |
| CC(C)C[C@H](NC(=O)[C@H](CC(N)=O)NC(=O)[C@H](CC(C)C)NC(=O)[C@@H](NC(=O)[C@@H](NC(=O)[C@@H]1CCCN1C(=O)[C@H](CCCNC(=N)N)NC(=O)[C@H](CCCCN)NC(=O)[C@@H]1CCCN1)[C@@H](C)O)[C@@H](C)O)C(=O)N[C@@H](Cc1ccccc1)C(N)=O | Mitogen-activated protein kinase 14 (Mapk14, Mus musculus, UniProt P47811) | enzyme activity, inhibitor, radiometric |  | pH 7.5 | 168 µM |
| Nc1ncnc2c1ncn2C1OC(COP(=O)(O)O)C(O)C1O (centres unmarked) | Sensor histidine protein kinase/phosphatase WalK (walK, Streptococcus pneumoniae, UniProt Q8DPL8) | enzyme activity, ATP-competitive inhibitor |  |  | 7150 µM |
| COc1cc(OC)c(C(=O)/C=C/c2cccc(OC)c2OC)c(OC)c1 | Seed linoleate 13S-lipoxygenase-1 | enzyme activity, inhibitor, absorbance |  |  | 116 µM |
| CC(=O)NCCN(CC(=O)NCCN(CC(=O)NCCN(CC(=O)NCCC(N)=O)C(=O)C[C@@H](N)CCCCN)C(=O)C[C@@H](N)Cc1ccccc1)C(=O)C[C@@H](N)Cc1ccccc1 | HIV-1 TAR RNA | Tat/TAR complex displacement, FRET |  | room temperature, together with: 10 nM Tat/TAR complex | 42.4 ± 0.7 µM |
| Cc1nc(N(C)C)nc(C)c1O | Seed linoleate 13S-lipoxygenase-1 | enzyme activity, inhibitor |  | pH 9.2 | 593 µM |

A few entries again:
| Compound | target | assay | system | setting | IC50 |
| --- | --- | --- | --- | --- | --- |
| COc1cc(OC)c(C(=O)/C=C/c2cccc(OC)c2OC)c(OC)c1 | Seed linoleate 13S-lipoxygenase-1 | enzyme activity, inhibitor, absorbance |  |  | 116 µM |
| CC(=O)NCCN(CC(=O)NCCN(CC(=O)NCCN(CC(=O)NCCC(N)=O)C(=O)C[C@@H](N)CCCCN)C(=O)C[C@@H](N)Cc1ccccc1)C(=O)C[C@@H](N)Cc1ccccc1 | HIV-1 TAR RNA | Tat/TAR complex displacement, FRET |  | room temperature, together with: 10 nM Tat/TAR complex | 42.4 ± 0.7 µM |
